# Assay results of several laboratories.
# Compare with care: the assays were run in different laboratories. Values joined by “and” are separate records of one study, mostly repeats; a detail may differ. ± gives the spread as reported.
# Sequence of UniProt P52735 (whole entry, looked up): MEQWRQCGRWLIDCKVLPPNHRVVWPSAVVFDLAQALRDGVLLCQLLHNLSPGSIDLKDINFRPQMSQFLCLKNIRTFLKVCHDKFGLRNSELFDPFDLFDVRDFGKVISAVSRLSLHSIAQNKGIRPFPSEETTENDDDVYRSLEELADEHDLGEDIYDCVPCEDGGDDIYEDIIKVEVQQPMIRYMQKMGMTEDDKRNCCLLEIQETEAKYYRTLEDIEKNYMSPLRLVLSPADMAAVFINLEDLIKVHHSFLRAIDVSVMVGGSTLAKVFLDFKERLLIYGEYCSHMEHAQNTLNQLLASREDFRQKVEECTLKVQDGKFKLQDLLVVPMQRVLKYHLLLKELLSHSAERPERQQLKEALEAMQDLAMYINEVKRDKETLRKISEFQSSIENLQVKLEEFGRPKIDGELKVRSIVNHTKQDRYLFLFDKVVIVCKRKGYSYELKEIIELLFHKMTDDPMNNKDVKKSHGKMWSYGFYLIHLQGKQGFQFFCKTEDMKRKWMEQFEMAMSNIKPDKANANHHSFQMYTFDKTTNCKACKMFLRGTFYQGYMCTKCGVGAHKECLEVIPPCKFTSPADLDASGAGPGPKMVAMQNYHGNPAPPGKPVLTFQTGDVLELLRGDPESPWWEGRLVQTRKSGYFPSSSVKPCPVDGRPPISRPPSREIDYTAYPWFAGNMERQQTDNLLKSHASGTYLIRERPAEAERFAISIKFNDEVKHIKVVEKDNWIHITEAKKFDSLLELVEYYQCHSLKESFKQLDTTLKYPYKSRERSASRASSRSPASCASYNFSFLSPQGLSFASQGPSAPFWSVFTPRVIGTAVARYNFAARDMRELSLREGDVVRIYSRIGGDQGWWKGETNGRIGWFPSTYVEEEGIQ
# Sequence of UniProt Q08881 (whole entry, looked up): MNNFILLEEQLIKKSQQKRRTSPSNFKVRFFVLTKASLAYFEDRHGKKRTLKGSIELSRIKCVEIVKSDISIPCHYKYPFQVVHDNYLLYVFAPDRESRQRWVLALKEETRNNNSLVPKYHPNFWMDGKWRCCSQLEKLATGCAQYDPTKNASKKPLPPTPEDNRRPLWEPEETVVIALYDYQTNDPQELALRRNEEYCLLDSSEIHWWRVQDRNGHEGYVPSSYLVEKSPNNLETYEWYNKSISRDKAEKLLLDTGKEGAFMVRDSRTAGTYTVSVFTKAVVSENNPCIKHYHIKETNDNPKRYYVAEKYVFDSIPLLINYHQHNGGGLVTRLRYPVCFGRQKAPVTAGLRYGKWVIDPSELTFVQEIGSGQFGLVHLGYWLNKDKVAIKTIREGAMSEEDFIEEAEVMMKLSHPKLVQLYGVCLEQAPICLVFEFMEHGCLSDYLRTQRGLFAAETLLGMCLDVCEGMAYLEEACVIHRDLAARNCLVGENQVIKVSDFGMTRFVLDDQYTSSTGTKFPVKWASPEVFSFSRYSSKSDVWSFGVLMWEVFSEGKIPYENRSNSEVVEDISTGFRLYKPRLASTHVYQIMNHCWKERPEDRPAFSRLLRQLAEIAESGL
# Sequence of UniProt Q9UNU6 (whole entry, looked up): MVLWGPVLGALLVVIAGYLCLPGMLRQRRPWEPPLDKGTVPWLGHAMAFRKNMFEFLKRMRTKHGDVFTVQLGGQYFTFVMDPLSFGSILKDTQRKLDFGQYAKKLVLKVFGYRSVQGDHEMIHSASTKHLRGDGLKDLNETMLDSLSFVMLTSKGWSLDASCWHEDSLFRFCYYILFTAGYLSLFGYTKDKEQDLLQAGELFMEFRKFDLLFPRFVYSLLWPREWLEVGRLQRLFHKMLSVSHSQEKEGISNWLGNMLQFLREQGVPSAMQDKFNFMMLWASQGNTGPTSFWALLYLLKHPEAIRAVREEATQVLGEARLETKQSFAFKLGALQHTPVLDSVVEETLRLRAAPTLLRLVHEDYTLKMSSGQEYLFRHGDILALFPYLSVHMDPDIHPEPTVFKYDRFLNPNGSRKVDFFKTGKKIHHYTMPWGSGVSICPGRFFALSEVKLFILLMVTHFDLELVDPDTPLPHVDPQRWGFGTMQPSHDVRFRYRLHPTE
# Sequence of UniProt O75815 (whole entry, looked up): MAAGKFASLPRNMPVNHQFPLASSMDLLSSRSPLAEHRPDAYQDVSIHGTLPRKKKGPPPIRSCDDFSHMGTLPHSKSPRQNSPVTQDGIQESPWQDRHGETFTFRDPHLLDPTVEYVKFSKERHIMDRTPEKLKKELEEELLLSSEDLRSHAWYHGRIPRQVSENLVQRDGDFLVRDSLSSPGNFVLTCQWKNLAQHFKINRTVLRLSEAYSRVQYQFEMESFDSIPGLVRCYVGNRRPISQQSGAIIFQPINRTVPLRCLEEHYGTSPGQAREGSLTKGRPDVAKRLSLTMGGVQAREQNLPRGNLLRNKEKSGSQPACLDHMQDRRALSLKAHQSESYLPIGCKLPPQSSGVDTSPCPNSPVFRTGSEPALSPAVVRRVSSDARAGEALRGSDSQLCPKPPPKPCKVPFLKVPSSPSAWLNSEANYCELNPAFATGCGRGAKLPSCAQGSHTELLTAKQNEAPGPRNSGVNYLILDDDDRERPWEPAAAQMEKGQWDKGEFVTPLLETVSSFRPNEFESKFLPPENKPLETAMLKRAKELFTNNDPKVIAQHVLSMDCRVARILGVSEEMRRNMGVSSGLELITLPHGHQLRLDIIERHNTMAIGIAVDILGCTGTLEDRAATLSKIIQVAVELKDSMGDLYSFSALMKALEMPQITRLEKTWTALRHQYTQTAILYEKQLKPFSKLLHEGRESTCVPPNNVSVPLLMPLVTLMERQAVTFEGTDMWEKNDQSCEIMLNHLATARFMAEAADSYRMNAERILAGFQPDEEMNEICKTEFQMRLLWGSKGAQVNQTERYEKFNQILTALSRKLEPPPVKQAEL
# Sequence of UniProt P42684 (whole entry, looked up): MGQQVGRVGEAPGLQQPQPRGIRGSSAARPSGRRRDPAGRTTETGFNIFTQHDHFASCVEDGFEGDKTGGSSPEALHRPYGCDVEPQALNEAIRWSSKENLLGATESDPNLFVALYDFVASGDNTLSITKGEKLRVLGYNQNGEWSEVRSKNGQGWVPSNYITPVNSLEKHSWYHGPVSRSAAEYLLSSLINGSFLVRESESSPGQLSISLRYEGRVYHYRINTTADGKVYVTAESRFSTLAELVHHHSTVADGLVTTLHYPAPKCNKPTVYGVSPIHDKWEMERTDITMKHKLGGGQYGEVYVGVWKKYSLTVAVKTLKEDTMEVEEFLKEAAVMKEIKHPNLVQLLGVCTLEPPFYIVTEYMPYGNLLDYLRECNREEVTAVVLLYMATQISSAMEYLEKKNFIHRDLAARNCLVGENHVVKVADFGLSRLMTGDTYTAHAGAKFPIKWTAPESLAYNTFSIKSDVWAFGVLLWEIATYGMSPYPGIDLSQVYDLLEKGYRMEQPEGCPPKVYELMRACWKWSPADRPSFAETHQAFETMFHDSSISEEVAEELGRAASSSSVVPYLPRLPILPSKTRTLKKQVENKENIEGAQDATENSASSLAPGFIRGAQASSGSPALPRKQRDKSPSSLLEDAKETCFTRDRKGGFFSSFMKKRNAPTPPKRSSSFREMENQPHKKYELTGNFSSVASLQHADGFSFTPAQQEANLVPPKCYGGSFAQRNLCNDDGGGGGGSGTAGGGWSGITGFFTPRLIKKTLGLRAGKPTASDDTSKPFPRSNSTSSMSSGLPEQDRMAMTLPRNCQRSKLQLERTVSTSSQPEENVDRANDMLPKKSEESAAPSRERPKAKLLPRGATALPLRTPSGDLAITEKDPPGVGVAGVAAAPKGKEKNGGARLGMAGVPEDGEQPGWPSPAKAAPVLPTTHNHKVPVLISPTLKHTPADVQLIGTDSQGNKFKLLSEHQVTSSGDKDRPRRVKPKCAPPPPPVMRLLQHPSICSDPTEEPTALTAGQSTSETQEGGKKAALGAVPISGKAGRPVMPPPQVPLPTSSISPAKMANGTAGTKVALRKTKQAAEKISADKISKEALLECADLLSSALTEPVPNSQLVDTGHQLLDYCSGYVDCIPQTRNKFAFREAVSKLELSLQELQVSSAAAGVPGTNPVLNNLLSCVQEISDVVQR
# Sequence of UniProt P49674 (whole entry, looked up): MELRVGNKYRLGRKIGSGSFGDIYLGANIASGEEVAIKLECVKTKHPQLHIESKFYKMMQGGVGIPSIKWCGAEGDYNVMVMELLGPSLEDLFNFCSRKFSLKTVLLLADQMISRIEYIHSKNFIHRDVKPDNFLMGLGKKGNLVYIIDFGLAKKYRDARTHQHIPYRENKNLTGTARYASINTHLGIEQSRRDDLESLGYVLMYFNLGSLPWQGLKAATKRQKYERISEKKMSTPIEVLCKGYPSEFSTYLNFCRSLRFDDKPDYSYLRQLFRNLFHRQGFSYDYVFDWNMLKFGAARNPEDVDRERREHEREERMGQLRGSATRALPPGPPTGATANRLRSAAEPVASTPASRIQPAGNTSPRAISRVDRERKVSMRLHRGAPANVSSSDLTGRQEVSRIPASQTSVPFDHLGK
SMILES,target,assay,system,setting,Kd
N=C(N)N,Gdx-Clo mutant A60T/A67I/K101N,tryptophan fluorescence,,,80000 nM
Nc1nc2c(ncn2[C@@H]2O[C@H](COP(=O)(O)OP(=O)(O)OP(=O)(O)O)[C@@H](O)[C@H]2O)c(=O)[nH]1,"GTP 3',8-cyclase (moaA, Staphylococcus aureus, UniProt P69848, R17A)","binding, isothermal titration calorimetry",,"25 °C, R17A mutant, anaerobic",380 ± 200 nM
CC(=O)N[C@H]1[C@@H](OC[C@H](NC(C)=O)C(=O)N[C@@H](CO[C@H]2O[C@H](CO)[C@H](O)[C@H](O)[C@H]2NC(C)=O)C(=O)N[C@@H](CO[C@H]2O[C@H](CO)[C@H](O)[C@H](O)[C@H]2NC(C)=O)C(=O)NCC(=O)O)O[C@H](CO)[C@H](O)[C@@H]1O,Vicia villosa lectin,glycan microarray,,3 glycans per BSA,1.6 ± 0.3 nM
C/C1=C\[C@H](C)C[C@H](C)OC(=O)C[C@H](c2ccc(O)cc2)NC(=O)[C@@H](Cc2c(Br)[nH]c3ccccc23)N(C)C(=O)[C@H](C)NC(=O)[C@@H](C)C1,bovine cardiac reconstituted thin filament,"binding, isothermal titration calorimetry",,,500 nM
CC[C@H](C)[C@H](NC(=O)[C@H](Cc1ccc(OP(=O)(O)O)cc1)NC(=O)[C@H](CCC(=O)O)NC(=O)[C@@H]1CCCN1C(=O)[C@@H](NC(=O)[C@@H]1CCCN1C(=O)[C@H](CC(C)C)NC(=O)[C@H](Cc1ccccc1)NC(=O)[C@@H](NC(=O)[C@H](CC(=O)O)NC(=O)[C@H](CC(=O)O)NC(=O)c1ccc2c(c1)C(=O)OC21c2ccc(N(C)C)cc2Oc2cc(N(C)C)ccc21)[C@@H](C)O)C(C)C)C(=O)N[C@@H](CC(N)=O)C(=O)N[C@@H](CCC(N)=O)C(=O)N[C@@H](CO)C(=O)N[C@H](C(=O)N1CCC[C@H]1C(=O)N[C@@H](CCCCN)C(=O)N[C@@H](CC(=O)O)C(=O)O)C(C)C,"Guanine nucleotide exchange factor VAV2, SH2 domain (VAV2, Homo sapiens, UniProt P52735)",binding,,,542 nM
N=C(N)NCCC[C@H](N)C(=O)O,"uncharacterized protein (Pelagibacter ubique, UniProt Q4FLC2)","binding, competition ITC",,two-sets-of-sites model,~0.03 nM
CSCC[C@H](NC(=O)[C@H](Cc1ccc(OP(=O)(O)O)cc1)NC(=O)CNC(=O)CNC(=O)[C@H](CC(=O)O)NC(=O)[C@H](CO)NC(=O)[C@H](CCC(=O)O)NC(=O)CNC(=O)[C@@H](NC(=O)[C@H](CC(C)C)NC(=O)[C@H](CO)NC(=O)c1ccc2c(c1)C(=O)OC21c2ccc(N(C)C)cc2Oc2cc(N(C)C)ccc21)[C@@H](C)O)C(=O)N[C@@H](CC(=O)O)C(=O)N[C@@H](CCSC)C(=O)N[C@@H](CO)C(=O)N[C@@H](CCCCN)C(=O)N[C@@H](CC(=O)O)C(=O)N[C@@H](CCC(=O)O)C(=O)N[C@@H](CC(=O)O)C(=O)O,"Breast cancer anti-estrogen resistance protein 3, SH2 domain (BCAR3, Homo sapiens, UniProt O75815)",binding,,,1270 nM
C[C@H](O)[C@H](O)c1cnc2[nH]c(N)nc(=O)c2n1,"Phenylalanine-4-hydroxylase (phhA, Chromobacterium violaceum, UniProt P30967, F107L/P134L/W180A/Y130S/Y179W)",,,,122000 ± 25100 nM
CC(C)C[C@H](NC(=O)[C@H](Cc1ccc(OP(=O)(O)O)cc1)NC(=O)[C@H](CCC(=O)O)NC(=O)[C@@H]1CCCN1C(=O)[C@H](CC(N)=O)NC(=O)CNC(=O)[C@@H](NC(=O)[C@H](C)NC(=O)[C@@H](NC(=O)[C@H](CO)NC(=O)[C@H](Cc1c[nH]cn1)NC(=O)c1ccc2c(c1)C(=O)OC21c2ccc(N(C)C)cc2Oc2cc(N(C)C)ccc21)[C@@H](C)O)C(C)C)C(=O)N[C@@H](CC(N)=O)C(=O)N[C@H](C(=O)N[C@H](C(=O)N[C@@H](CCC(N)=O)C(=O)N1CCC[C@H]1C(=O)N[C@H](C(=O)N[C@@H](CC(=O)O)C(=O)O)[C@@H](C)O)C(C)C)[C@@H](C)O,"Tyrosine-protein kinase ITK/TSK, SH2 domain (ITK, Homo sapiens, UniProt Q08881)",binding,,,1760 nM
CCCC1COC(Cn2cncn2)(c2ccc(Cl)cc2Cl)O1 (stereo not drawn),"7-alpha-hydroxycholest-4-en-3-one 12-alpha-hydroxylase (Homo sapiens, UniProt Q9UNU6)",binding,,"20 min, pH 7.4",64200 nM
O=C(CCCOc1ccc(Cl)cc1)NC1CCOC1=O (stereo not drawn),"qscR, ligand-binding domain (Pseudomonas aeruginosa, UniProt G3XD77)","ligand binding, FRET displacement",,ligand-binding domain,1.63 nM
C[C@H](NC(=O)[C@@H](NC(=O)[C@H](CO)NC(=O)[C@H](Cc1c[nH]cn1)NC(=O)[C@@H]1CCCN1C(=O)[C@H](CC(=O)O)NC(=O)[C@H](CCC(N)=O)NC(=O)[C@H](Cc1ccc(OP(=O)(O)O)cc1)NC(=O)[C@H](Cc1c[nH]cn1)NC(=O)[C@@H]1CCCN1C(=O)[C@H](CC(=O)O)NC(=O)[C@H](CCCNC(=N)N)NC(=O)[C@H](CO)NC(=O)[C@@H]1CCCN1C(=O)[C@H](C)NC(=O)[C@@H]1CCCN1C(=O)[C@H](CC(N)=O)NC(=O)c1ccc2c(c1)C(=O)OC21c2ccc(N(C)C)cc2Oc2cc(N(C)C)ccc21)[C@@H](C)O)C(=O)N[C@@H](CC(=O)O)C(=O)O,"Tyrosine-protein kinase ABL2, SH2 domain (ABL2, Homo sapiens, UniProt P42684)",binding,,,74 nM
CCCC(=O)CC(=O)N[C@H]1CCOC1=O,"qscR, DNA-bound (Pseudomonas aeruginosa, UniProt G3XD77)","DNA binding, ligand, EMSA",,"4 °C, saturating ligand",7 nM and 7.08 nM
CC(C)C[C@H](NC(=O)[C@H](CO)NC(=O)[C@H](CO)NC(=O)CNC(=O)[C@@H]1CCCN1C(=O)[C@H](Cc1ccc(O)cc1)NC(=O)[C@H](CC(C)C)NC(=O)[C@H](CO)NC(=O)[C@H](CS)NC(=O)[C@H](CC(C)C)NC(=O)[C@@H](N)CC(C)C)C(=O)O,"Epidermal growth factor receptor, extracellular domain (EGFR, Homo sapiens, UniProt P00533)","binding, first site, surface plasmon resonance",immobilised soluble EGFR,"25 °C, model, binding, one to two",363000 nM
CC[C@H](CO)Nc1nc(NCc2ccc(-c3ccccn3)cc2)c2ncn(C(C)C)c2n1,"Casein kinase I isoform epsilon (CSNK1E, Homo sapiens, UniProt P49674)","binding, competition affinity chromatography",SH-SY5Y cell extract,,5730 nM
CSCC[C@H](NC(=O)[C@H](CC(C)C)NC(=O)[C@H](C)NC(=O)[C@H](CCCNC(=N)N)NC(=O)[C@H](Cc1ccc(OP(=O)(O)O)cc1)NC(=O)[C@H](Cc1ccccc1)NC(=O)[C@H](CC(N)=O)NC(=O)[C@H](CO)NC(=O)[C@H](CC(=O)O)NC(=O)[C@@H](NC(=O)[C@@H]1CCCN1C(=O)[C@H](CO)NC(=O)[C@@H]1CCCN1C(=O)[C@H](CC(C)C)NC(=O)c1ccc2c(c1)C(=O)OC21c2ccc(N(C)C)cc2Oc2cc(N(C)C)ccc21)[C@@H](C)O)C(=O)N[C@@H](CC(=O)O)C(=O)N[C@@H](CCC(=O)O)C(=O)N[C@@H](CCC(=O)O)C(=O)N[C@@H](CC(=O)O)C(=O)O,"Tyrosine-protein kinase SYK, SH2 domains (SYK, Homo sapiens, UniProt P43405)",binding,,,905 nM
Nc1ncnc2c1ncn2[C@@H]1O[C@H](COP(=O)(O)O)[C@@H](OP(=O)(O)O)[C@H]1O,"Thermonuclease, denatured (nuc, Staphylococcus aureus, UniProt P00644)",,,,800000 nM
CC(=O)N[C@H]1[C@@H](OC[C@H]2O[C@@H](O)[C@H](O)[C@@H](O)[C@H]2O)O[C@H](CO)[C@H](O)[C@@H]1O,Vicia villosa lectin,glycan microarray,,4 glycans per BSA,188 ± 30 nM

# Excerpt of the above:
SMILES,target,assay,system,setting,Kd
CC[C@H](C)[C@H](NC(=O)[C@H](Cc1ccc(OP(=O)(O)O)cc1)NC(=O)[C@H](CCC(=O)O)NC(=O)[C@@H]1CCCN1C(=O)[C@@H](NC(=O)[C@@H]1CCCN1C(=O)[C@H](CC(C)C)NC(=O)[C@H](Cc1ccccc1)NC(=O)[C@@H](NC(=O)[C@H](CC(=O)O)NC(=O)[C@H](CC(=O)O)NC(=O)c1ccc2c(c1)C(=O)OC21c2ccc(N(C)C)cc2Oc2cc(N(C)C)ccc21)[C@@H](C)O)C(C)C)C(=O)N[C@@H](CC(N)=O)C(=O)N[C@@H](CCC(N)=O)C(=O)N[C@@H](CO)C(=O)N[C@H](C(=O)N1CCC[C@H]1C(=O)N[C@@H](CCCCN)C(=O)N[C@@H](CC(=O)O)C(=O)O)C(C)C,"Guanine nucleotide exchange factor VAV2, SH2 domain (VAV2, Homo sapiens, UniProt P52735)",binding,,,542 nM
